Published values from different studies.
Lines come from different studies, so protocols differ. Numbers after ± are the reported error.

SMILES | test system | setting | AUC(0-t)
Cc1cccc(C)c1CNc1cc(C(=O)N2CCC2)cn2c(C)c(C)nc12 | rat Sprague-Dawley male, plasma | oral, 10 mg/kg | 608 ng·h/mL
COc1ccc([C@@H]2CC(=O)c3c(O)cc(O[C@@H]4O[C@H](CO)[C@@H](O)[C@H](O)[C@H]4O[C@@H]4O[C@@H](C)[C@H](O)[C@@H](O)[C@H]4O)cc3O2)cc1O | Sprague-Dawley rat, male, lean, plasma | oral, 100 mg/kg | 43.2 ± 12.4 ng·h/mL
O=C(O)c1c(O)cc(O[C@@H]2O[C@H](CO)[C@@H](O)[C@H](O)[C@H]2O)cc1/C=C/c1ccccc1 | Sprague-Dawley rat, plasma | oral, 5.0 mg/kg | 80.3 ± 17.9 ng·h/mL
COCCN(C)CC(=O)NC(Cc1ccc(-c2ccccc2)cc1)B(O)O (centres unmarked) | male Sprague-Dawley rats, plasma | intravenous, 1 mg/kg, 24 h, citrate ester | 2.34 µM·h
CNC(=O)C1CCCN(C(=O)C2CC3CCC2N3C(=O)[C@@H]2C[C@@H](O)CN2C(=O)NCc2cccc(Cl)c2F)C1 (mixture of isomers) | rat, Sprague-Dawley | iv, 2.5 mg/kg | 694 ng·h/mL
OC1(C(F)(F)F)CCN(c2nc(Nc3ccnc(C(F)(F)F)c3)nc(-c3cccc(C(F)(F)F)n3)n2)C1 (centres unmarked) | Sprague-Dawley rat, both sexes, plasma | oral gavage, 10 mg/kg | 17100 ± 1090 ng·h/mL
CCCC[C@H](OC(C)=O)c1ccccc1C(=O)O | Sprague-Dawley rat, both sexes, whole blood | intravenous, 5 mg/kg, day 7 | 4250 ± 1150 ng·h/mL
C=C(NC(=O)c1csc(-c2nc3c(cc2O)-c2nc(cs2)C(=O)NC(C(C)O)C(=O)NC(=C(C)OC)c2nc(cs2)C(=O)NC2c4nc(cs4)C(=O)NC(COC(=O)c4c5c6c(cccc6n4O)COC(=O)C(OC4CC(C)(O)C(N(C)C)C(C)O4)C2OC5)c2nc-3cs2)n1)C(N)=O (centres unmarked) | Sprague-Dawley rats, both sexes, plasma | intravenous infusion, 6 mg/kg, single dose | 2090 ng·h/mL

For quick reference, copied from above:
SMILES | test system | setting | AUC(0-t)
OC1(C(F)(F)F)CCN(c2nc(Nc3ccnc(C(F)(F)F)c3)nc(-c3cccc(C(F)(F)F)n3)n2)C1 (centres unmarked) | Sprague-Dawley rat, both sexes, plasma | oral gavage, 10 mg/kg | 17100 ± 1090 ng·h/mL
